Measurements gathered from unrelated publications.
Numbered parts are unrelated; each lists some results of a single study.

Study 1 — technique: RNA Bind-n-Seq; molecule type: RNA; matrix: in vitro; concentration: 200 nM; setting: whole 134-nt RNA, ends assumed; with: 150 mM LiCl; reference: input library; direction: higher = stronger binding; all molecules: 7-deaza-guanosine replaces G
Target: Ras GTPase-activating protein-binding protein 1, full length (G3BP1, Homo sapiens, UniProt Q13283)
Chain of UniProt Q13283 (whole entry, looked up): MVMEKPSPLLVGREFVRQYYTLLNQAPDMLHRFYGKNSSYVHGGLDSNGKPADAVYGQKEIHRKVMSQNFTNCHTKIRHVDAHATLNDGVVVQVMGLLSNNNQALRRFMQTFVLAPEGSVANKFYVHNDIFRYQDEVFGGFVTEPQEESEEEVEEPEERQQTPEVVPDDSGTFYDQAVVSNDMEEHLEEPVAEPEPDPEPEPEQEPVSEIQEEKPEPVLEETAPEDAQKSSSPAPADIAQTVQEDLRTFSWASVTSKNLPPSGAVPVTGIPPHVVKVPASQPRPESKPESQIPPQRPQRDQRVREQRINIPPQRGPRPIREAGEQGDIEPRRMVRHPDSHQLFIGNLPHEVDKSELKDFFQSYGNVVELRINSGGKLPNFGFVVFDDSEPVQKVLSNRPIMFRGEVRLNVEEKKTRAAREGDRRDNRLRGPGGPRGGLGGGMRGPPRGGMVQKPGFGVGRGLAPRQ
Constant ends, left off below: GGGAGUUCUACAGUCCGACGAUC … UGGAAUUCUCGGGUGUCAAGG
With `UGCCAUAAGCGGCACCGGCACUGCCCGGUUGUCGUGUCCGAGGCCACCAUCGUGGGCGUCCGCAAGACCGGGCAGAUCUGGCCCAACGAU` the log2 enrichment was -1.27.
`CAAGUCCUGUGCUACACAUCGUAUGUACCGAAUCGGGAAAGGGAAAGGGAAAGGGAAAGUAUUAUGUUACGCCGUUCGGAUCUGCACUUC` gave a log2 enrichment of -0.401.
`ACCAUGCAGGUGGGCAUCUUUGGGAAGUGGGGCAAGGGGGGGAUAGGGAGGGGGGUAACACUUUGGGAACAGGUGUUCCCAGGUCGUUUC` has a log2 enrichment of 0.51.
`UCCUGUGCUACACAUCGUAUGUACCGAAUCGGGCCCCCCGGGGCCCCCCGGCCCCCCGGAAAGUAUUAUGUUACGCCGUUCGGAUCUGCA` gave a log2 enrichment of -0.853.
The log2 enrichment of `GGCACAGGUGCCCGACCAUACACUGGGAAAGUUGGUGCUGAGGAUGCCGAUGGGAUUGACAUGGCCUACCGGGUGCUGGCUGACCACGCU` is reported as -1.35.
With `UCAAGUCCUGUGCUACACAUCGUAUGUACCGAAUCGGGGCCGGGCCGGGGCCGGAAAGUAUUAUGUUACGCCGUUCGGAUCUGCACUUCC` the log2 enrichment was 0.361.
The log2 enrichment of `CACAGACAACACGCACCCACACAGACACAGAGGGAAGGGGUUGGGAUGGGGACAGGGUGCACAGCAGGGCGGGGCAGGACCCCAGCCCCU` is reported as 1.28.
The log2 enrichment of `GCAGGAAGUAAAAACAAAUGGAAUUGCUUCGGAUAGUGGCAGGGGUGGGGGUUGCUAAGGAAAGGGUGGGAUGGGAGUGGGUAAAGAGUU` is reported as 0.182.

Study 2 — observed: enzyme activity; action: inhibitor; concentration: 20 µM
Target: Replicase polyprotein 1ab, polymerase (rep, Severe acute respiratory syndrome coronavirus 2, UniProt P0DTD1)
For `O=c1cc[nH]c(=O)[nH]1`, the inhibition was 0.34%.
`CCCN(CCC)CCc1ccc(OC)c(OCCc2ccccc2)c1` has an inhibition of 0.14%.
`Cc1ncc([N+](=O)[O-])n1CC(O)CCl` (stereo not shown) has an inhibition of -6.46%.
For `CNC(=C[N+](=O)[O-])NCCSCc1csc(CN(C)C)n1`, the inhibition was -2.05%.
`O=C(O)c1ccc(-c2c[nH]c3ncc(-c4ccccc4)cc23)cc1C1CCCC1` has an inhibition of -9.46%.
For `CN1CCN(CCOc2cc(OC3CCOCC3)c3c(Nc4c(Cl)ccc5c4OCO5)ncnc3c2)CC1`, the inhibition was 0.5%.
For `CN1CCc2cc3c(cc2[C@H]1[C@@H]1OC(=O)c2c1ccc1c2OCO1)OCO3`, the inhibition was 0.72%.
For `O=C(Nc1ccccc1)[C@@]12C[C@@H]1/C(=N\O)c1ccccc1O2`, the inhibition was 2.72%.
With `Clc1cccc2c1CN(C1=NCCN1)C2` the inhibition was 1.92%.
`c1ccc(C2(c3ccccc3)CC2C2=NCCN2)cc1` (stereo not shown) has an inhibition of 3.66%.
The inhibition of `NC(N)=NCCC[C@H](N)C(=O)NCC(=O)N[C@@H](CC(=O)O)C(=O)N[C@@H](CO)C(=O)O` is reported as -3.41%.
`NC(=O)c1ncn([C@@H]2O[C@H](CO)[C@@H](O)[C@H]2O)c1N` has an inhibition of -1.82%.
`O=C(Nc1ccc(N2CCC(C(=O)N3CCOCC3)CC2)cc1)c1cnc(Oc2ccccc2)nc1` has an inhibition of 2.21%.
`Cc1cnc(CNC(=O)c2c(=O)c3ccc(N4CCCN(C)CC4)nc3n3c2sc2ccccc23)cn1` gave an inhibition of 3.03%.
`COC(=O)C1=C(C)NC(C)=C(C(=O)OC(C)C)C1c1cccc2nonc12` (stereo not shown) gave an inhibition of -1.18%.
With `CCC(Oc1ccc(Cl)cc1)C(=O)OC1C[C@H]2CC[C@@H](C1)N2C` (stereo partly shown) the inhibition was 2.52%.
The inhibition of `CC(C)(C)c1ccc(C(O)CCCN2CCC(C(O)(c3ccccc3)c3ccccc3)CC2)cc1` (stereo not shown) is reported as -0.39%.
The inhibition of `O=C1C(O)=C(O)C(=O)C(O)=C1O` is reported as 1.91%.
With `Cc1cccc(-c2nn3c(c2-c2ccnc4ccc(C(N)=O)cc24)CCC3)n1` the inhibition was -1.9%.
`O=C(N[C@@H]1CC[C@@H](c2cccc(F)c2F)CN(CC(F)(F)F)C1=O)N1CCC(n2c(=O)[nH]c3ncccc32)CC1` has an inhibition of -1.58%.
`Nc1nc(OCc2cc(Br)cs2)c2[nH]cnc2n1` gave an inhibition of 2.19%.
The inhibition of `CC(C)NCCCn1c(Sc2cc3c(cc2I)OCO3)nc2c(N)ncnc21` is reported as 2.31%.
The inhibition of `CN1C(=O)N(C)C2C1N(C)C(=O)N2C` (stereo not shown) is reported as 3.08%.
With `CC(C)(C)[C@]1(O)CCN2C[C@H]3c4ccccc4CCc4cccc(c43)[C@@H]2C1` the inhibition was -8.35%.
`COc1ccc(Cn2ccc3ccc(C(=O)NO)cc32)cc1` has an inhibition of -3.99%.

Study 3 — cell line: HEK-293T; observed: pseudovirus infection; organism: VSV pseudotyped with SARS-CoV-2 spike; concentration: 10 µM; time: 16 h; reference: vehicle-treated
With `NC(=O)c1cn(Cc2c(F)cccc2F)nn1` the GFP-positive cells was 86.6%.
`C[C@H](Cn1cnc2c(N)ncnc21)OCP(=O)(O)O` gave a GFP-positive cells of 93.2%.
`O=c1[nH]cnc2c1ncn2[C@H]1CC[C@@H](CO)O1` has a GFP-positive cells of 71.3%.

Study 4 — observed: enzyme activity; action: inhibitor; setting: with DTT
Target: Replicase polyprotein 1ab, main protease (rep, Severe acute respiratory syndrome coronavirus 2, UniProt P0DTD1)
`COc1cc(N(C)C)cc(CN(C)CCc2ccc([N+](=O)[O-])cc2)c1O` gave an IC50 of greater than 20 µM.
The IC50 of `COc1ccnc(C[S+]([O-])c2nc3ccc(OC(F)F)cc3[nH]2)c1OC` (stereo not shown) is reported as 1.1 µM.
`CC(Cc1ccc(O)c(O)c1)C(C)Cc1ccc(O)c(O)c1` (stereo not shown) gave an IC50 of 0.7 µM.

Study 5 — technique: competition protein-binding microarray; molecule type: double-stranded DNA, one strand shown; matrix: in vitro; concentration: 2 µM; with: Pho4 competitor, 0.05 µM; direction: higher = stronger binding; constant ends, left off below: … GTCTTGATTCGCTTGACGCTGCTG
Target: Centromere-binding protein 1, full length, His-tagged (CBF1, Saccharomyces cerevisiae, UniProt P17106, residues 1-351)
Chain of UniProt P17106 (whole entry, looked up): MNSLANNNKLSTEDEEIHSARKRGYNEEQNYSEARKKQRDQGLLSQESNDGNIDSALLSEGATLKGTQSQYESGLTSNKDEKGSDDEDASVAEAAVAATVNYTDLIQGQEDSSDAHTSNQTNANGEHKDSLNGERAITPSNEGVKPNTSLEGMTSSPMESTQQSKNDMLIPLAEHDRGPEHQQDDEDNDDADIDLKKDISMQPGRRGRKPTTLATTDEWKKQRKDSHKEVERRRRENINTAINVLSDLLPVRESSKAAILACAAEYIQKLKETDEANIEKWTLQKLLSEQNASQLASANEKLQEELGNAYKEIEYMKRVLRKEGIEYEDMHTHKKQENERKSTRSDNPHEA
Setting: whole 60-bp probe, lowest competitor level
`AAAGCGGTAATTTTTCACGTGGTATCAAATATCTAT` gave a fluorescence intensity of 2400 a.u.
`AAACCATTCAGGTCTTGCGTGCCGAGAATTTTTTTT` gave a fluorescence intensity of 86.3 a.u.
With `CTTTTCTGCTACGGCCACGTGGCCGCAGCCCGATTT` the fluorescence intensity was 1120 a.u.
The fluorescence intensity of `AAATTACTAAGTTGGGGCGTGGGTGACGCCGTATGA` is reported as 66.7 a.u.
With `TTATCACCGTAATGGCCCAGATTAATGGCGATCCTT` the fluorescence intensity was 66.6 a.u.
`AAAGCGGTAATTTGAAGGGTGGGTGCAGATATCTAT` has a fluorescence intensity of 72.2 a.u.
With `TGTGCTTGGTTTGGAAACGTGCAAACACCTTACCTG` the fluorescence intensity was 96.3 a.u.
With `GCTCCCTCAGCCCCGGGCGTGCTTTGACGCTATTCC` the fluorescence intensity was 44.4 a.u.

Study 6 — technique: RNA Bind-n-Seq; molecule type: RNA; matrix: in vitro; concentration: not given; reference: input RNA pool; direction: higher = stronger binding
Target: RING finger protein unkempt homolog, zinc fingers 1-6, GST-SBP tag (UNK, Homo sapiens, UniProt Q9C0B0, residues 30-357)
Chain of UniProt Q9C0B0 (30-357, looked up): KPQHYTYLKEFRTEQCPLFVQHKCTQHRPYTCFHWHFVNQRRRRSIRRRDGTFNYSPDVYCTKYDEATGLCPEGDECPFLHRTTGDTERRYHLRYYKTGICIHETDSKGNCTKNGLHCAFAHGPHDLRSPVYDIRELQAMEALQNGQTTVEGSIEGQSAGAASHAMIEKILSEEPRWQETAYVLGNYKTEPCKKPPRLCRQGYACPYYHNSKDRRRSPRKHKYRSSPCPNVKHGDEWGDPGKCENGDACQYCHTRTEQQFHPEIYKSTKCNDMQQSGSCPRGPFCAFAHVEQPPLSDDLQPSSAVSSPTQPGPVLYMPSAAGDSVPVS
Setting: RNA with constant flanks, human-mouse chimeric sites, ends assumed
Constant ends, left off below: GGGAGUUCUACAGUCCGACGAUC … CAACAGAGGAUUGAGCAUCA
With `AGAAUCUUGGGACUGUUUUGCUUGAUUGGUCAUUGAUAGCUUAACAAACAUGGAGAUAAGAUUAGAAGUUUUGACAUCAACAGGUAUUAAGCAGAAAAAACCAUGGCCACGUGUCUCCUG` the bound/input enrichment was 0.297 ratio.
With `UGUAGUUUCUUGAUUUAUCAUUUUUCUCUUUUCUUUCAGAUCGUCAGGAAAAGCCUAAAGAUUAGGUUGUAAGAAAAGAAAAUAGAAUGUUUCGAAGACCUGUGUUACAGGUAUUUCGUC` the bound/input enrichment was 0.585 ratio.
With `CUGAGGAAUACCACUGAGAGACCUUAAAAGAAUCAUUUGAGGGCUCUGUUCGUGCAAGAAUAGUCACCUGACCGGGAACUGGUUCUUCCAAAGGGUUUGGUUUUGUAGACUUUAAUAGUG` the bound/input enrichment was 0.818 ratio.
`AGGAGGAGGUUAAAGGGUGAGAGUGGGGUGGAAGACUGUGUCAUGGCUCUGGAGACACUGUUCAGUGUCCUGCUUUCUCUGUGCAGACUGAUGGCCCCCUACACACCCUUUCUGACUGAG` has a bound/input enrichment of 0.0649 ratio.
The bound/input enrichment of `CCCUCCCGGGCCACCCAGCCCGCCCAAGCUCCCCGCCGAGAUCCAGGUUUCUUCUUAUUUCAUAGCAAAUAAGAAAAAUGUUCUACGCACAUUUUGUCCUCAGUAAACGAGGGCCUCUGG` is reported as 0.586 ratio.
For `ACUCUUGACUCUUUCCAUCCUCUUCCUUUCCCUCUUGAUAUUCAAGGCCAUGAAUCCCAAAAUAGCUGUCUUAGUGGCUAGCACCCAAACAGAGGUGGAAUAAAUCCACCCCAGUGUCUC`, the bound/input enrichment was 0.939 ratio.
The bound/input enrichment of `UCAGGAACUCAGACAAACAUGAAUGUAAAUGAAGUCAUUAGCAACAGAGCAAUUGAAAUGUUAGGAGGUGAACUUGGCAGCAAGAAGCCUGUGCACCCCAAUGAUCAUGUUAACAAAAGC` is reported as 0.189 ratio.
With `GUGCCCUCCUUCUCGCUGCGGAGCCCGCCCAGCUGGGCAUUCCGGGACUGGUACCCUGCACACAGCCGCCUCUUCGAUCAAGCUUUCGGGGUGCCCCGGUUGCCCGAUGAGUGGUCGCAG` the bound/input enrichment was 0.0866 ratio.

Repeated from above (study 2):
For `CNC(=C[N+](=O)[O-])NCCSCc1csc(CN(C)C)n1`, the inhibition was -2.05%.
`O=C(O)c1ccc(-c2c[nH]c3ncc(-c4ccccc4)cc23)cc1C1CCCC1` has an inhibition of -9.46%.
For `CN1CCN(CCOc2cc(OC3CCOCC3)c3c(Nc4c(Cl)ccc5c4OCO5)ncnc3c2)CC1`, the inhibition was 0.5%.
For `CN1CCc2cc3c(cc2[C@H]1[C@@H]1OC(=O)c2c1ccc1c2OCO1)OCO3`, the inhibition was 0.72%.
For `O=C(Nc1ccccc1)[C@@]12C[C@@H]1/C(=N\O)c1ccccc1O2`, the inhibition was 2.72%.
With `Clc1cccc2c1CN(C1=NCCN1)C2` the inhibition was 1.92%.
`c1ccc(C2(c3ccccc3)CC2C2=NCCN2)cc1` (stereo not shown) has an inhibition of 3.66%.
The inhibition of `NC(N)=NCCC[C@H](N)C(=O)NCC(=O)N[C@@H](CC(=O)O)C(=O)N[C@@H](CO)C(=O)O` is reported as -3.41%.
`NC(=O)c1ncn([C@@H]2O[C@H](CO)[C@@H](O)[C@H]2O)c1N` has an inhibition of -1.82%.
